Experimental data from different studies.
Parts stem from different laboratories: compare values within a part only.
UniProt Q8IW41, sequence (whole entry, looked up): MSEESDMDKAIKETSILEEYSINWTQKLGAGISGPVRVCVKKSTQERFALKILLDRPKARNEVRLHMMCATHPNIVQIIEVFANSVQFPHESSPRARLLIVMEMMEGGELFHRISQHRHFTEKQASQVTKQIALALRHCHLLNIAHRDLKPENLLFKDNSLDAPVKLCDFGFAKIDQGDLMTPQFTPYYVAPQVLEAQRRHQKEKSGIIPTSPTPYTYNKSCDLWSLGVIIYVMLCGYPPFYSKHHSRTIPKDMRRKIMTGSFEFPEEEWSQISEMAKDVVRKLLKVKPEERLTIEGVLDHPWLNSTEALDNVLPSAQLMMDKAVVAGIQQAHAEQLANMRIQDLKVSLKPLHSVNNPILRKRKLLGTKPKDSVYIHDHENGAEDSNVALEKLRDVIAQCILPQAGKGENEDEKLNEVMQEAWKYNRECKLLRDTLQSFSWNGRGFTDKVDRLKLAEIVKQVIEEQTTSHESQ
UniProt Q96KB5, sequence (whole entry, looked up): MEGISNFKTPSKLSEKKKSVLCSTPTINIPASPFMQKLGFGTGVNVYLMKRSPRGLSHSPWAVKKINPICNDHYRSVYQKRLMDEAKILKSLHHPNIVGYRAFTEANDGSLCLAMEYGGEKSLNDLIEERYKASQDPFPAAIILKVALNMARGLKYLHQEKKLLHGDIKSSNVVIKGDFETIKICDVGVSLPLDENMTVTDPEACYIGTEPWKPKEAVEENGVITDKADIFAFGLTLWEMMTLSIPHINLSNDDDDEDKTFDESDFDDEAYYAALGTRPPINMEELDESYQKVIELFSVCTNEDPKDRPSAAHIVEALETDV
UniProt Q9H093, sequence (whole entry, looked up): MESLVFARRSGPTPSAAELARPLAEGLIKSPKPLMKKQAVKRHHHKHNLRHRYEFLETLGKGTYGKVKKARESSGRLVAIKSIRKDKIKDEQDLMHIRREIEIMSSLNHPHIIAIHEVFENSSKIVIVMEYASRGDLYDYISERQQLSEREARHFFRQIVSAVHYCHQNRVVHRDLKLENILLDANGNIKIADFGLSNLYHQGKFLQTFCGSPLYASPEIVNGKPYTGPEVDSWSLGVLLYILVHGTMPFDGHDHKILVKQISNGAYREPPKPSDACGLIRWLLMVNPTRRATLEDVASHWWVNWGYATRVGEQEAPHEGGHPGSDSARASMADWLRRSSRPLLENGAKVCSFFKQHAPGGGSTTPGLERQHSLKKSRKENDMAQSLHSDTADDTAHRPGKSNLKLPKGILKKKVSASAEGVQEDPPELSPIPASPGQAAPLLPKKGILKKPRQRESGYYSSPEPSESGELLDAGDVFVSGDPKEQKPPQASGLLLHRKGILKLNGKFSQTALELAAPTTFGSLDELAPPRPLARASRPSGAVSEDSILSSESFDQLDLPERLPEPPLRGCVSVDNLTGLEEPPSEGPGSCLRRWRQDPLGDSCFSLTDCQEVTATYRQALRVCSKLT
UniProt Q9UQB9, sequence (whole entry, looked up): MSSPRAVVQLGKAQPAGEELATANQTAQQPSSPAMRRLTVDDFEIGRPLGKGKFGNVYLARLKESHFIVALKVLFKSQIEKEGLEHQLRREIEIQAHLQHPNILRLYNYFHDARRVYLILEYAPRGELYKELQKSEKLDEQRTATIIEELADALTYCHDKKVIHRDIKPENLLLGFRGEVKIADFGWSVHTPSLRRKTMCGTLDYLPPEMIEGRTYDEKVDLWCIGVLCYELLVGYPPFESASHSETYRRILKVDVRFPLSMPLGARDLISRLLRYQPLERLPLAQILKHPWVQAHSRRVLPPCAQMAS
UniProt Q92918, sequence (whole entry, looked up): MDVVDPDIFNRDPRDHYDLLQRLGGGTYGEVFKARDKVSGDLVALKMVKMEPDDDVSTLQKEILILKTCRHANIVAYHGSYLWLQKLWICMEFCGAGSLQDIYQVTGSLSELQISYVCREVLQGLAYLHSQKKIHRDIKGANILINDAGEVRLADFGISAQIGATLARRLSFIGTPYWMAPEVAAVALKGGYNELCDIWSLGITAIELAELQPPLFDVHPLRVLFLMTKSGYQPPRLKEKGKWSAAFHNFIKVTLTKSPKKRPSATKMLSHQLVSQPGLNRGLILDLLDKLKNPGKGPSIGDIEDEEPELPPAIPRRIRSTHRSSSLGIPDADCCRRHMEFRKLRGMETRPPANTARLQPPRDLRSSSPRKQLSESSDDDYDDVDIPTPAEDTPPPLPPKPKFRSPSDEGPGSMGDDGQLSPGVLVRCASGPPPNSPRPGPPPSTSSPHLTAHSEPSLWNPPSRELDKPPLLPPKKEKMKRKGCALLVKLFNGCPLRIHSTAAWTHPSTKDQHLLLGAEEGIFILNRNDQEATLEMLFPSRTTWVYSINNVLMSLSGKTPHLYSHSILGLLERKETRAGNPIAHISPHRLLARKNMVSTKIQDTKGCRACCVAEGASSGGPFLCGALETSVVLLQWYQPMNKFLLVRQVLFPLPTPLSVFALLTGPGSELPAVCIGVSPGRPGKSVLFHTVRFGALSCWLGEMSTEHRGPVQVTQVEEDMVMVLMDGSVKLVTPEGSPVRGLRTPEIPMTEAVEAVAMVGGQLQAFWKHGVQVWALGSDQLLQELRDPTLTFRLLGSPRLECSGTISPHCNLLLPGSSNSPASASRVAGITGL
UniProt Q9Y616, sequence (whole entry, looked up): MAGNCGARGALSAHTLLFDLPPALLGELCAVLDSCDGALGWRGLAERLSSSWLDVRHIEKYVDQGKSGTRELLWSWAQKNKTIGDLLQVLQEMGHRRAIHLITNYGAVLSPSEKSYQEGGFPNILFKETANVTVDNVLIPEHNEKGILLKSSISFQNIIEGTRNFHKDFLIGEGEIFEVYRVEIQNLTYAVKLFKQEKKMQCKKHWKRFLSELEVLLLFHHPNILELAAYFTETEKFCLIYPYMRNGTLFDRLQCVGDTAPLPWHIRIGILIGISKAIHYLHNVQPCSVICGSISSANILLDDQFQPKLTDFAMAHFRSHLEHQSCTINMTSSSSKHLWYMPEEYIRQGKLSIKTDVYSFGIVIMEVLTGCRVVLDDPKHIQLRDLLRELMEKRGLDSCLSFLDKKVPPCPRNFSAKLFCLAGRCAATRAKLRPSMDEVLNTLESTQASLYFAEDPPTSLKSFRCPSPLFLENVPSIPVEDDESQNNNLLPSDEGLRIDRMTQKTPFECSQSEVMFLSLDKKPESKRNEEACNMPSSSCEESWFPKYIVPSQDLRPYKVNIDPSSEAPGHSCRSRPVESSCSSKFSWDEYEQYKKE
UniProt O14733, sequence (whole entry, looked up): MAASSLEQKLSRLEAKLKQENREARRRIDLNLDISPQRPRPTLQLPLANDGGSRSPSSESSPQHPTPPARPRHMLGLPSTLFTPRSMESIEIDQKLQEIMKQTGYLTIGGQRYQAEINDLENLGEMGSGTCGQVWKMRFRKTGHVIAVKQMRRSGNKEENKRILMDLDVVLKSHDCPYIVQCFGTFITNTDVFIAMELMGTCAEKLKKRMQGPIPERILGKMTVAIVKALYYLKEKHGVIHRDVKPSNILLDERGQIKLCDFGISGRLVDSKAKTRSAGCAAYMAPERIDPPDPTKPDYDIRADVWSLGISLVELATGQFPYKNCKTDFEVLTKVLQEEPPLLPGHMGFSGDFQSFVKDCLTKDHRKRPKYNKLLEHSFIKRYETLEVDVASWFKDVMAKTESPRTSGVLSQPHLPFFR
UniProt Q9HBY8, sequence (whole entry, looked up): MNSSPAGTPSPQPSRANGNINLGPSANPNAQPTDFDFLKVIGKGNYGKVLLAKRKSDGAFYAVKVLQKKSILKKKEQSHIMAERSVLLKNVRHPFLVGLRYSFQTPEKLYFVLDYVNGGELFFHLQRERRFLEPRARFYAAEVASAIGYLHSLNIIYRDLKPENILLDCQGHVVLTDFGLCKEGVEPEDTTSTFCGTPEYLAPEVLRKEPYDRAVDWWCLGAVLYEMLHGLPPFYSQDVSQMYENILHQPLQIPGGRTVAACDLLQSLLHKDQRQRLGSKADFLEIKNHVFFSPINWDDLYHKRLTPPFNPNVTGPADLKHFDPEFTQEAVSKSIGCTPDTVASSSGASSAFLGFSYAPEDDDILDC

Series 1
Compound: O=C(NCCCC1CCCCC1)c1ccc(CNC(=O)c2cnn(-c3ccccc3)c2C(F)(F)F)cc1
Tested at: 0.1 µM
For PTK2 (Homo sapiens, UniProt Q05397); cell-free assay, competition with immobilised ligand: remaining binding read 100%.
The remaining binding was 100% (MAP2K7 (Homo sapiens, UniProt O14733); cell-free assay, competition with immobilised ligand).
For ULK1 (Homo sapiens, UniProt O75385); cell-free assay, competition with immobilised ligand: remaining binding read 100%.
It gave 98% for remaining binding (FER (Homo sapiens, UniProt P16591); cell-free assay, competition with immobilised ligand).
For PIK3CD (Homo sapiens, UniProt O00329); cell-free assay, competition with immobilised ligand: remaining binding read 100%.
CIT (Homo sapiens, UniProt O14578); cell-free assay, competition with immobilised ligand — remaining binding: 86%.
The remaining binding was 93% (STK38 (Homo sapiens, UniProt Q15208); cell-free assay, competition with immobilised ligand).
It gave 100% for remaining binding (Tyrosine-protein kinase JAK1, JH1 (JAK1, Homo sapiens, UniProt P23458); cell-free assay, competition with immobilised ligand).
For KIT (Homo sapiens, UniProt P10721, L576P); cell-free assay, competition with immobilised ligand: remaining binding read 100%.
The remaining binding was 95% (SGK2 (Homo sapiens, UniProt Q9HBY8); cell-free assay, competition with immobilised ligand).
IRAK3 (Homo sapiens, UniProt Q9Y616); cell-free assay, competition with immobilised ligand — remaining binding: 100%.
SIK1 (Homo sapiens, UniProt P57059); competition binding — remaining binding: 91%.
CSNK1E (Homo sapiens, UniProt P49674); cell-free assay, competition with immobilised ligand — remaining binding: 100%.
The remaining binding was 80% (CDKL1 (Homo sapiens, UniProt Q00532); cell-free assay, competition with immobilised ligand).
For Aurora kinase C (AURKC, Homo sapiens, UniProt Q9UQB9); cell-free assay, competition with immobilised ligand: remaining binding read 100%.
The remaining binding was 79% (CILK1 (Homo sapiens, UniProt Q9UPZ9); cell-free assay, competition with immobilised ligand).
It gave 80% for remaining binding (Tyrosine-protein kinase ABL1, non-phosphorylated (ABL1, Homo sapiens, UniProt P00519, T315I); cell-free assay, competition with immobilised ligand).
It gave 100% for remaining binding (MAP4K1 (Homo sapiens, UniProt Q92918); cell-free assay, competition with immobilised ligand).
The remaining binding was 100% (STK16 (Homo sapiens, UniProt O75716); cell-free assay, competition with immobilised ligand).

Series 2
SMILES: N#Cc1cnc2cnc(NCc3cccnc3)cc2c1Nc1ccc(F)c(Cl)c1
Read-out: enzyme activity
Mode: inhibitor
Tested at: 0.5 µM
Baseline: control
For IRAK1 (Homo sapiens, UniProt P51617): remaining activity read 114%.
NUAK2 (Homo sapiens, UniProt Q9H093) — remaining activity: 135%.
For PBK (Homo sapiens, UniProt Q96KB5): remaining activity read 84.8%.
The remaining activity was 91.2% (CAMK2G (Homo sapiens, UniProt Q13555)).
The remaining activity was 91.2% (EPHA8 (Homo sapiens, UniProt P29322)).
For TYK2 (Homo sapiens, UniProt P29597): remaining activity read 103%.
CSNK1G1 (Homo sapiens, UniProt Q9HCP0) — remaining activity: 87%.
It gave 99.6% for remaining activity (MAPKAPK5 (Homo sapiens, UniProt Q8IW41)).

Series 3
SMILES: C=CCc1ccc(O)c(-c2ccc(O)c(CC=C)c2)c1
Read-out: chloride current
Method: whole-cell voltage clamp
ANO1 del476-501/F807W: Anoctamin-1 (ANO1, Homo sapiens, UniProt Q5XXA6, del476-501/F807W)
UniProt Q5XXA6, sequence (whole entry, unmodified, looked up): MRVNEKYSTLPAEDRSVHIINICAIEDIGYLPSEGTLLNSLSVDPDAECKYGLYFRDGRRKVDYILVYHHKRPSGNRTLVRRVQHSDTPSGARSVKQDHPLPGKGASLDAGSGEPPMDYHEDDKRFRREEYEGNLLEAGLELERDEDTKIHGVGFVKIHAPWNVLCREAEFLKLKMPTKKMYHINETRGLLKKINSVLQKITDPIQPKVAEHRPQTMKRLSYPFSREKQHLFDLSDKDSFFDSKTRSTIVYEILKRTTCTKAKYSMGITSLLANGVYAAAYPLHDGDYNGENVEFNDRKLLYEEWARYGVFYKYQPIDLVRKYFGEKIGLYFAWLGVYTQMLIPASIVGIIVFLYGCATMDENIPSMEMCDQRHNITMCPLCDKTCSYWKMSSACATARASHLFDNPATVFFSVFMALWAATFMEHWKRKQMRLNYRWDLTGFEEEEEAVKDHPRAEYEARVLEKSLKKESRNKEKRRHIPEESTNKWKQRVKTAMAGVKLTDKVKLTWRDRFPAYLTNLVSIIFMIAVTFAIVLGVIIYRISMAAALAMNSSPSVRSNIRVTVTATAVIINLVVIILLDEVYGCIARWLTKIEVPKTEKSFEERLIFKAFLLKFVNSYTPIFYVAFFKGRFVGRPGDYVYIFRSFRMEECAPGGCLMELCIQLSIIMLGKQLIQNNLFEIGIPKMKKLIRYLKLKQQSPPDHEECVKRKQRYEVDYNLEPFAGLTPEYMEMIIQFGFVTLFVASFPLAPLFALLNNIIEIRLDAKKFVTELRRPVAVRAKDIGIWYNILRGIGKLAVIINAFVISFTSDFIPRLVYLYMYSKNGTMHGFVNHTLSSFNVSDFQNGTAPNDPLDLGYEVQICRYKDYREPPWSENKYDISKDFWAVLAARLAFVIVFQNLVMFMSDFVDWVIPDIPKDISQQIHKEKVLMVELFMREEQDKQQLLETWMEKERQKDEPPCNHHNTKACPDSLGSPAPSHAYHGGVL
ANO1 del476-501: Anoctamin-1 (ANO1, Homo sapiens, UniProt Q5XXA6, del476-501)
ANO1 del476-501/R631D: Anoctamin-1 (ANO1, Homo sapiens, UniProt Q5XXA6, del476-501/R631D)
ANO1 del476-501/F646A: Anoctamin-1 (ANO1, Homo sapiens, UniProt Q5XXA6, del476-501/F646A)
For ANO1 del476-501/F807W; inhibitor; 60 mV holding voltage: IC50 read 9.68 µM.
It gave 6.37 µM for IC50 (ANO1 del476-501; inhibitor; 100 mV voltage, together with: 300 nM Ca2+).
For Anoctamin-1 (ANO1, Homo sapiens, UniProt Q5XXA6, del476-501/L548A); membrane voltage 100 mV: IC50 read 6.2 µM.
The IC50 was 5.5 µM (Anoctamin-1 (ANO1, Homo sapiens, UniProt Q5XXA6, del476-501/F803W); inhibitor; 60 mV holding voltage).
ANO1 del476-501/R631D; inhibitor; R605D mutant at 40 mV — IC50: 20.6 µM.
The IC50 was 21.1 µM (Anoctamin-1 (ANO1, Homo sapiens, UniProt Q5XXA6, del476-501/R631K); inhibitor; R605K mutant at -100 mV).
It gave 17.3 µM for IC50 (ANO1 del476-501/R631D; inhibitor; R605D mutant at 20 mV).
It gave 7.13 µM for IC50 (ANO1 del476-501/F646A; membrane voltage 60 mV).
ANO1 del476-501/F807W; inhibitor; mutant F781W — IC50: 12.1 µM.
The IC50 was 4.62 µM (Anoctamin-1 (ANO1, Homo sapiens, UniProt Q5XXA6, del476-501/M544A); inhibitor; pore pocket mutant M518A at 100 mV, together with: 300 nM Ca2+).
It gave 6.14 µM for IC50 (ANO1 del476-501/F646A; membrane voltage 40 mV).
It gave 3.14 µM for IC50 (ANO1 del476-501; inhibitor; 20 mV voltage, together with: 300 nM Ca2+).

Series 4
SMILES: CC(=O)N[C@@H](Cc1c[nH]c2ccccc12)C(=O)N[C@@H](CCC(=O)C=[N+]=[N-])C(=O)OC(C)C
Method: flow cytometry
Dose: dose not given
Baseline: vehicle
For item: TCF1; mice bearing MC38-OVA tumours, tumour-infiltrating CD8+ T cells: relative MFI read 1.42.
item: CD122; mice bearing MC38-OVA tumours, tumour-infiltrating CD8+ T cells — relative MFI: 1.49.
item: EOMES; CD8+ tumour-infiltrating lymphocytes, mouse, MC38-OVA tumour — relative MFI: 2.06.
For item: BCL6; mice bearing MC38-OVA tumours, tumour-infiltrating CD8+ T cells: relative MFI read 1.59.
item: CD62L; mice bearing MC38-OVA tumours, tumour-infiltrating CD8+ T cells — relative MFI: 1.93.
item: CD28; mice bearing MC38-OVA tumours, tumour-infiltrating CD8+ T cells — relative MFI: 1.42.

Excerpt of the above (series 1):
The remaining binding was 100% (STK16 (Homo sapiens, UniProt O75716); cell-free assay, competition with immobilised ligand).
The remaining binding was 100% (MAP2K7 (Homo sapiens, UniProt O14733); cell-free assay, competition with immobilised ligand).
SIK1 (Homo sapiens, UniProt P57059); competition binding — remaining binding: 91%.
